Published values of several laboratories.
Target: Cyclin-dependent kinase 11A (CDK11A, Homo sapiens, UniProt Q9UQ88)

With `COc1cc(Nc2nccc(-c3cnn4nc(OC)ccc34)n2)cc(C(F)(F)F)c1` the remaining binding was 81% (binding, competition with immobilised ligand; 1 µM).
`Cc1ccc(-c2c(/C=C(\C#N)C(=O)NC(C)C)n(CCCO)c3ncnc(N)c23)cc1` gave a remaining binding of 87% (cell-free assay, competition with immobilised ligand; 1 µM).
`CCN1CCN(Cc2ccc(C(=O)Nc3ccc(C)c(NCc4cnc5[nH]ccc5c4OC)c3)cc2C(F)(F)F)CC1` gave a remaining binding of 78% (binding, competition with immobilised ligand; 1 µM).
`Nc1ncc2c(n1)-c1c([nH]c3ccc(C4=CCOCC4)cc13)CCC2` gave a remaining binding of 100% (binding, competition with immobilised ligand; 1 µM).
`CNC(=O)C1CCN(c2cc(C)c(F)cc2NC(=O)c2ccc(-c3cc(O)ccc3C)c(C)c2)CC1` has a remaining binding of 88% (binding, competition with immobilised ligand; 1 µM).
`COc1c(Cl)cccc1Nc1c(-c2ccncc2C#C[C@@]2(C)CCCN2C(=O)/C=C/CN(C)C)[nH]c2c1C(=O)NCC2` has a remaining binding of 97% (binding, competition with immobilised ligand; 3 µM).
`CCN1CCN(Cc2ccc(NC(=O)c3ccc(C)c(NC(=O)c4cncc(-c5cccs5)c4)c3)cc2C(F)(F)F)CC1` has a remaining binding of 36% (binding, competition with immobilised ligand; 1 µM).
With `CC(C)=CC1OC(C)(C)C2C=C3C(=O)C(Cl)=CC(O)C3C3C(O)C4OC4C(=O)C132` (centres unmarked) the remaining binding was 93% (cell-free assay, competition with immobilised ligand; 10 µM).
`Cc1cnc2nc1Nc1cccc(c1)COC/C=C/COCc1cc(ccc1OCCN1CCOCC1)N2` gave a remaining binding of 99% (binding; 0.1 µM).
With `C=CC(=O)N1CCc2ccc(-n3c(=O)ccc4cnc5ccc(-c6cnn(C)c6)cc5c43)cc21` the remaining binding was 100% (KINOMEscan; 1 µM; relative to: DMSO control).
With `CNC1C[S+]2CC[S+]3CC[S+](C1)[Ru-4]321([N]=C=S)[n]2c3ccc(OC)cc3c3c4c(c5cc(F)c[n+]1c5c32)C(=O)NC4=O` (centres unmarked) the remaining binding was 96% (KinomeScan; 0.1 µM; relative to: untreated).

Some of these lines once more:
With `COc1cc(Nc2nccc(-c3cnn4nc(OC)ccc34)n2)cc(C(F)(F)F)c1` the remaining binding was 81% (binding, competition with immobilised ligand; 1 µM).
`Cc1ccc(-c2c(/C=C(\C#N)C(=O)NC(C)C)n(CCCO)c3ncnc(N)c23)cc1` gave a remaining binding of 87% (cell-free assay, competition with immobilised ligand; 1 µM).
